Assay results from different studies.
Numbered parts are unrelated; each lists some results of a single study.

Set 1 — technique: universal PBM; molecule type: double-stranded DNA, one strand shown; medium: in vitro; concentration: 600 nM; reading: higher = stronger binding; measurement: E-score
Target: Sal-like protein 4, full length isoform A (SALL4, Homo sapiens, UniProt Q9UJQ4, residues 1-1053)
Sequence of UniProt Q9UJQ4 (whole entry, looked up): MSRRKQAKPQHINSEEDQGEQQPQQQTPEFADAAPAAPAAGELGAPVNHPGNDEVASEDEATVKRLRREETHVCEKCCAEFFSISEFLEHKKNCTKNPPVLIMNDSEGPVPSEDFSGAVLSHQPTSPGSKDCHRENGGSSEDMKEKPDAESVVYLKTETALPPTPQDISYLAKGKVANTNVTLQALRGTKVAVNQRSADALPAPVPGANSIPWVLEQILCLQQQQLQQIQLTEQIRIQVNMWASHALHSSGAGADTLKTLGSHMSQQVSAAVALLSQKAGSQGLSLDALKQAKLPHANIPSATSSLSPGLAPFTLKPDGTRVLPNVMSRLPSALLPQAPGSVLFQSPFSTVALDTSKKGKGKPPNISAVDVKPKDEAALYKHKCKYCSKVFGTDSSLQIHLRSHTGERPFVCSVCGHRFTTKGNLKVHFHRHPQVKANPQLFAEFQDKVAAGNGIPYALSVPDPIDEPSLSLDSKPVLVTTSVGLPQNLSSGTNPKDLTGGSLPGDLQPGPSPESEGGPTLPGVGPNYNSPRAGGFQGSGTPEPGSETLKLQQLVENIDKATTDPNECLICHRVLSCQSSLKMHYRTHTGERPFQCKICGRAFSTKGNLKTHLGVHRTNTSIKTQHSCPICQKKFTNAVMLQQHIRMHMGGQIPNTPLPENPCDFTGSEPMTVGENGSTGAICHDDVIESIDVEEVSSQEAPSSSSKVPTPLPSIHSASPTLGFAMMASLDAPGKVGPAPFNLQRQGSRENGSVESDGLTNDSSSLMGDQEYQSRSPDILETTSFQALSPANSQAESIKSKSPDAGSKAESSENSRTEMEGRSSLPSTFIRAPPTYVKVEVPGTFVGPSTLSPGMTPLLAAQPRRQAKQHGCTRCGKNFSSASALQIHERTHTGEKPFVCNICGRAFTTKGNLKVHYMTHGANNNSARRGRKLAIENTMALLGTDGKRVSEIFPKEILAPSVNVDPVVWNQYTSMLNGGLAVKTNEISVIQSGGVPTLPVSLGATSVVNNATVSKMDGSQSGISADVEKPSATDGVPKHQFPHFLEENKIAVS
Setting: 8-mer, flanks averaged, mean of replicates
Sequence = CGCACACA; result = -0.0346
Sequence = ATAGACTC; result = 0.114
Sequence = ACGAAAAA; result = 0.24
Sequence = ACGGCGGA; result = -0.243
Sequence = GCTCGTAC; result = -0.0161
Sequence = CTCTGAAC; result = -0.118
Sequence = CGGCGGGA; result = -0.433
Sequence = AGTGCGTA; result = -0.0559
Sequence = GCGCAAAA; result = 0.212
Sequence = ACATCAAG; result = 0.201
Sequence = GCTATGGA; result = 0.0769
Sequence = GCAACATA; result = 0.18
Sequence = ACTGCTGA; result = -0.111
Sequence = CGGTAGTA; result = 0.0264
Sequence = TGCTCCCA; result = -0.091
Sequence = ACAAACCG; result = -0.0596
Sequence = ATTAGGAG; result = 0.224
Sequence = ACCGGCAG; result = -0.296
Sequence = CCCCGATA; result = -0.0174
Sequence = AGGTGGGC; result = -0.351

Set 2 — technique: protein-binding microarray; molecule type: double-stranded DNA, one strand shown; medium: in vitro; concentration: not given; reading: higher = stronger binding; measurement: E-score
Target: Protein C-ets-1 (ETS1, Homo sapiens, UniProt P14921, residues 1-441, Y397A, full length assumed)
Setting: k-mer, scored over probes, only values ≥0.25
Construct (chain): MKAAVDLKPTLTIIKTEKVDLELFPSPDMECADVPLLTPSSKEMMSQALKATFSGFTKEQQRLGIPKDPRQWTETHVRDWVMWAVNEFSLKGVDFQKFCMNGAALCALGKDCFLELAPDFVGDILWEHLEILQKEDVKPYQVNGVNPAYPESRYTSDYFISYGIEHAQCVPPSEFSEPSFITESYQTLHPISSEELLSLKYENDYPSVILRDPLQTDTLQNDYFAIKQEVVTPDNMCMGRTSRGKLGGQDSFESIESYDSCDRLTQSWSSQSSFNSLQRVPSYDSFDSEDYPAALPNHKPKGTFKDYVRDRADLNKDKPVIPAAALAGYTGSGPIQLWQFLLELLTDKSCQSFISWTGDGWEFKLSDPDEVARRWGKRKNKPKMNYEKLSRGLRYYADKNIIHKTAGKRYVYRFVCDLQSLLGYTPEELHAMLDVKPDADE
Sequence = ATTTGTCG; result = 0.399
Sequence = CCCGCCCC; result = 0.383
Sequence = TCTGTCAA; result = 0.281
Sequence = AATTGCAA; result = 0.266
Sequence = CCAACAAA; result = 0.29
Sequence = TCCGCGGA; result = 0.255
Sequence = CGGCAAAA; result = 0.289
Sequence = CGACACAA; result = 0.291
Sequence = TGTGACAA; result = 0.325
Sequence = CATCCGCC; result = 0.381
Sequence = CTTGTCAA; result = 0.255
Sequence = CTTTGGCA; result = 0.257
Sequence = GTCGCGAC; result = 0.403
Sequence = AATGCAAA; result = 0.261
Sequence = CACTTCCA; result = 0.292
Sequence = TCCGCCAA; result = 0.252
Sequence = CACCGGTG; result = 0.368
Sequence = ACACGACT; result = 0.27
Sequence = GGTTGCAA; result = 0.27
Sequence = ACAGCAAA; result = 0.307
Sequence = TACCGACA; result = 0.318
Sequence = CCACTTCC; result = 0.404
Sequence = AGTTTGTC; result = 0.326

Set 3 — technique: protein-binding microarray; molecule type: double-stranded DNA, one strand shown; medium: in vitro; concentration: 250 nM; setting: 60-bp whole probe; together with: salmon DNA 0.4 mg/ml; relative to: random background probes; reading: higher = stronger binding; measurement: log fluorescence; constant ends, left off below: GCCTAGCAC … GTCTTGATTCGCTTGACGCTGCTG
Target: Interferon regulatory factor 7, full length, phosphomimetic (IRF7, Homo sapiens, UniProt Q92985, residues 1-503, S101K/S471D/S472D/S475D/S476D/S477D/S483D/S484D/S487D)
Target sequence (chain): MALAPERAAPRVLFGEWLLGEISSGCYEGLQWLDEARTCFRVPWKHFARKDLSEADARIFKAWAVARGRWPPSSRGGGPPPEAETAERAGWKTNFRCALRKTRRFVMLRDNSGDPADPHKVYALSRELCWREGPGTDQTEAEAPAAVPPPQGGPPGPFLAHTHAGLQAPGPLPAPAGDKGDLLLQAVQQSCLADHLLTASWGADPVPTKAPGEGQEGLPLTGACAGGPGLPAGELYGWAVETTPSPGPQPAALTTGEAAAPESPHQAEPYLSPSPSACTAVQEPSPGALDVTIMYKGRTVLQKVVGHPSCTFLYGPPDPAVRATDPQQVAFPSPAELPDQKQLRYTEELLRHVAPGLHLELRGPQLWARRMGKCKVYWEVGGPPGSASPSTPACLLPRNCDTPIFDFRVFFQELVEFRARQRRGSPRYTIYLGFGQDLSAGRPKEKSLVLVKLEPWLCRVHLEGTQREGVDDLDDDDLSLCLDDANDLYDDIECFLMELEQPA
Sequence = GACGGTTTCGGACTCGGGACGTGCTAG; result = 4.26 z-score
Sequence = TTAGGACTGGTTATCGGTTAGTGCTAG; result = 0.625 z-score
Sequence = ATCTGCAGCTGACTACACACGTGCTAG; result = -0.79 z-score
Sequence = TGTTTTTGCTTTCTTTATGCGTGCTAG; result = 3.42 z-score
Sequence = TCAACTTTCCAATTGTCACTGTGCTAG; result = 1.84 z-score
Sequence = GACGGACTGTGGTTTCGGGACGTGCTA; result = 2.32 z-score
Sequence = TTAGCTCTCAGTATCGATTAGTGCTAG; result = 0.788 z-score
Sequence = TTAGATTTCAGAATCGATTAGTGCTAG; result = 0.859 z-score
Sequence = TTAGGGATCGGTTTCGGTTAGTGCTAG; result = 9.83 z-score
Sequence = TTTTAAAATGGACACTGTACAGTGCTA; result = 0.163 z-score
Sequence = AGCTGTTTCTGTGTCACAGAGTGCTAG; result = 0.195 z-score
Sequence = TCCCCTCCGGGACCCGCCTCGTGCTAG; result = 0.0213 z-score
Sequence = TTAGGTATCGGGACTGGGATAGTGCTA; result = 0.0609 z-score
Sequence = TCAGAGCTCTGTCTGGGACTGTGCTAG; result = -1.14 z-score
Sequence = TTCGGTTTCGGGTTTCGGTTAGTGCTA; result = 12.7 z-score
Sequence = GCAGTTGTCGTTCAAGGCTGGTGCTAG; result = -0.331 z-score
Sequence = TTAGGACTGCTTATGCTTTAGTGCTAG; result = -0.301 z-score
Sequence = CTCTACATGTGTTTAAGAATGTGCTAG; result = 0.0223 z-score
Sequence = AGCATCTTCAAGACTCATAATGTGCTA; result = 0.00312 z-score
Sequence = GACGGTATCGGTTTCGGCACGTGCTAG; result = 5.44 z-score
Sequence = AAAGATATAAATGTAACATGGTGCTAG; result = 0.0173 z-score
Sequence = TTAGCTTTCAGACTGGATTAGTGCTAG; result = -0.405 z-score
Sequence = TTAGACTTCGGGTATCGATTAGTGCTA; result = 0.52 z-score
Sequence = TTAGATCTCAGTATCAATTAGTGCTAG; result = -0.00614 z-score
Sequence = GACGGTTTCGGGACTGAGGACGTGCTA; result = 3.69 z-score

Set 4 — technique: RNA Bind-n-Seq; molecule type: RNA; medium: in vitro; concentration: 100 nM; relative to: input RNA pool; reading: higher = stronger binding; measurement: bound/input enrichment
Target: RING finger protein unkempt homolog, zinc fingers 1-6, SBP tag (UNK, Homo sapiens, UniProt Q9C0B0, residues 30-357)
Sequence of UniProt Q9C0B0 (30-357, looked up): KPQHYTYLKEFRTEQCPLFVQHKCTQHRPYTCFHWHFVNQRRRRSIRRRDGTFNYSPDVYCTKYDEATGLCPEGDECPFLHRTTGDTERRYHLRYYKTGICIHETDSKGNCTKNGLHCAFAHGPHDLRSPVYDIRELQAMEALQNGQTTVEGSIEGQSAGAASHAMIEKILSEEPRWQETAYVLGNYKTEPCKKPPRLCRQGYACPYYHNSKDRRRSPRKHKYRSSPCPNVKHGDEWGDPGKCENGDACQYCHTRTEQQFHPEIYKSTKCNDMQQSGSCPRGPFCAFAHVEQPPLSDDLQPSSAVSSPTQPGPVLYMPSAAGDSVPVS
Setting: RNA with constant flanks, vertebrate orthologous sites, ends assumed
Constant ends, left off below: GGGAGUUCUACAGUCCGACGAUC … CAACAGAGGAUUGAGCAUCA
Sequence = AGAAGACUUUGUGUGCCAGAUUACCCCAAAAACAUAAAGCUACUUUUUUACUUGCAUAUUUUUCAAAGUACCUGGAAAAAUGUUUUUUCUCCUUUCUAAUGGUCAAAAGAAGGUACAUUU; result = 0.53 ratio
Sequence = CAACAGGAGGGUGCUGGACAAGGUGAGGAGCAAGUUAAGGCGGCAGAGGUUGGUAAAACUGCUGCCAUUGCACAAUGGCUAAGCUGCAGUCACUUCUCUGUGUAAAACCAGCUGUGUUUA; result = 0.42 ratio
Sequence = GACCUCCUGAACUUCUAGCUUUCAAGCUGUGGCUGUUUUAGAUACUGGUUUUAUUUUCUUUACAAUUUUCCUGCCUUUCUUCCCCUGUUCCCAAGGUUUGACUCAUGGAUCUUAUUCUUC; result = 2.81 ratio
Sequence = UCAUUGUACUGCAAAAAUCAUCCUAGUUCUAAACUAGCCACAGUGAUAACUAGUCUGCACUAAUAGAAUCAUUUGCUAUUACCUUUUAAAUUAUCUGCUUUGUCUGAUACCUAAAGCACA; result = 0.887 ratio
Sequence = UAAGAAUUGGAAGAAUUGUGUAGGAGGCAGUAGUCAAAAAGUAGAAGCAGUUUGGAAGAGUAGUUACAAAUAUCAAGAGCCAGGUGGCUAAAAGGUGGAGCUAUAGGUCAUUGAAGCUCA; result = 1 ratio
Sequence = GUUAGGUCAUGACCCUUAUAGGUUAGGUCAUGAUGCCUACAGGUUAGGGCAGGACCCCUAUAGAUUAGGCCAUGAUCCCUACAGACUAACUCCUGAUCCCUAUAGGAUGUCACCUAGACC; result = 0.631 ratio
Sequence = GGGUGACUUUGGACGCCCUCAUACAAGGAGCAGAGAGUCCUAGGUUCUGGGCCUGCCGGCUUCGUUUCUUCCUUCCGGACCUGAGGCCUCGUCCACAAACAUGCUUCGCCAGAUCCUCAG; result = 0.239 ratio
Sequence = AGCAACUCAAGGAUUGAGGACUGGUUUUACAAAUACACCAAGUAGAUAUGGAACUAAUAAUAGAAUUGGACAACCAAGACCAUGAUAGACUCUAACUUAUUUUUAUAAGGAAUAUUGACU; result = 0.391 ratio
Sequence = AUGGCACCCCCUGUGAGAGGGAGUGGGGGAAGCCCAGGAUGACCCUCAGUUGUUCCAAUCCAGUAUUUUUUCCUUAAAAAAAAAAUUACUGUAUUUAUUAUGACGAUGGUGACUCCCCAG; result = 0.291 ratio
Sequence = GUCCUCUGACUGGAUGAAGACGGUACCAAGUUACAACCAAACAAAUAGCUCUCUGGACUUUAGAAAUUAUGUGACGAGAGAUGAGAAUCUGGAACCACUGCCCAAAAACUGGGAAAUGGC; result = 0.328 ratio
Sequence = GUUGUGACCCAUUUAACAUACACAAAAAACUAGCCAAAAAAAAUUUGCAUGUAAUUGACUUAGAUGAUGCCACUUUUCUGAGUGCAAAAUUUGGAAGACAGCUUGUACCUGGGUGGAAGC; result = 1.54 ratio
